Measurements of several laboratories.
Every numbered part comes from another study and shows a few of its results, in no order.

Series 1 — method: EMSA with sequencing; form: double-stranded DNA, one strand shown; medium: in vitro; tested at: 10 and 20 nM; baseline: negative control set to 0; reading: higher = stronger binding
Target: Hepatocyte nuclear factor 3-alpha (Foxa1, Mus musculus, UniProt P35582, residues 1-468, full length assumed)
Setting: whole designed probe, mean of two concentrations, ends assumed
All sequences stand within: GTGAGCGGTGCCCATTGATGGGGAAC … TTTCACTGGGATCGTGGGGAC
Target sequence (chain): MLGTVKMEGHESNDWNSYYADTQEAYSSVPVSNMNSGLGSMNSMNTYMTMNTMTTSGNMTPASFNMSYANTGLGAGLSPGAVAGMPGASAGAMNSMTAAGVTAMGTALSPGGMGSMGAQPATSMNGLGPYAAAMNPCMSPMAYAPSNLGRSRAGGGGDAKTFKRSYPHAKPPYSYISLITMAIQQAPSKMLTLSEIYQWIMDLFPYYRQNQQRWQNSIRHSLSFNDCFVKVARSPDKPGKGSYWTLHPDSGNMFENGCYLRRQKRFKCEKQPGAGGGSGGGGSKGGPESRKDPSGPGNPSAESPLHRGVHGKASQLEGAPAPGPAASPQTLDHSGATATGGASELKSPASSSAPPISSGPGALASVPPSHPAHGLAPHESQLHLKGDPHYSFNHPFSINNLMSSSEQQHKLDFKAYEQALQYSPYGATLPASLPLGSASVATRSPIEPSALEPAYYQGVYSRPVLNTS
Sequence	normalised bound fraction
TCTTCTGTTGATTTATTCAGAGATATCTAGTGTCTATATGCAAGCAATATATTAGTTGCGAAGTGTCTAGGAACAGTGAAAGACACAAGTCTCCTGTTTACTTAGATTATGCAGACTATTGTGAAAGAAAGGGACTGAAAGGAGTTCACTATACCGTAAAGGTAGTGTGGCGCAAGGTGAATGTGAGTCTGTA	0.378 ratio
GCATGAGACAGCATTTCTTCTTGTCCTCGGGGCCTGCAGGAAGTTTTTAAGTAATCTGCTTTTGTGCCTCTTCCAAATCTCCTCCTATGACCCTGTTTACCATACAACACAAGAAACAATCAATAAAAGTGGTTTGTGTTCGTGAGTGCCGTGTGTTTGACAAAGGCGTTGATAACTGAGAGCTGGTAGTGGA	0.0969 ratio
ATCTTCCCCCTCTTCCTTGCCCCACCAGCTCACCTTCCCGGGTTATTTGCAGATAGGAAAATAAATAAAGCCGGCATTCGTTAACCCTCTTCTGGCGCAAACTGCTGTTTGCTCTGGTCCTTTGGCGACGCCAGGCTCCGGGAGGATGAATCATGAGCAAAGCACCGTGTCAGGGCCATGATCCGGGGTGGCC	0.393 ratio
AAATGGAAATCATAATGCAGATACAGAATTTTAAAGTTGGTTATCTCCTGCTACCTCAAGTATTATTTTAGGATTAGTAAGGGAAATTACCTAAGTAATCTTAGATGAATTATTCACATATAAATCTGAGATTCACTCATATATAATAATCTAATTTTTTACTAGACTTGGTGATCATAAGAAATATTATAAG	-0.0362 ratio
ATCTTCCCCCTCTTCCTTGCCCCACCAGCTCACCTACGGGGGTTATTTGCACAAAGGAAAATAAATAAAGCCGGCATTCGTTAACCCTCTTCTGGCGCAAACTGCTGTTTGCTCTGCATGAATCATGGTCCTTACGCGACGCCAGGCTCCGGGAGAGCAAAGCACCGTGTCAGGCGCATGATCCGGGGTGGCC	0.38 ratio

Series 2 — method: universal PBM; form: double-stranded DNA, one strand shown; medium: in vitro; tested at: 600 nM; reading: higher = stronger binding
Target: Sal-like protein 4, full length isoform A (SALL4, Homo sapiens, UniProt Q9UJQ4, residues 1-1053)
UniProt Q9UJQ4, sequence (whole entry, looked up): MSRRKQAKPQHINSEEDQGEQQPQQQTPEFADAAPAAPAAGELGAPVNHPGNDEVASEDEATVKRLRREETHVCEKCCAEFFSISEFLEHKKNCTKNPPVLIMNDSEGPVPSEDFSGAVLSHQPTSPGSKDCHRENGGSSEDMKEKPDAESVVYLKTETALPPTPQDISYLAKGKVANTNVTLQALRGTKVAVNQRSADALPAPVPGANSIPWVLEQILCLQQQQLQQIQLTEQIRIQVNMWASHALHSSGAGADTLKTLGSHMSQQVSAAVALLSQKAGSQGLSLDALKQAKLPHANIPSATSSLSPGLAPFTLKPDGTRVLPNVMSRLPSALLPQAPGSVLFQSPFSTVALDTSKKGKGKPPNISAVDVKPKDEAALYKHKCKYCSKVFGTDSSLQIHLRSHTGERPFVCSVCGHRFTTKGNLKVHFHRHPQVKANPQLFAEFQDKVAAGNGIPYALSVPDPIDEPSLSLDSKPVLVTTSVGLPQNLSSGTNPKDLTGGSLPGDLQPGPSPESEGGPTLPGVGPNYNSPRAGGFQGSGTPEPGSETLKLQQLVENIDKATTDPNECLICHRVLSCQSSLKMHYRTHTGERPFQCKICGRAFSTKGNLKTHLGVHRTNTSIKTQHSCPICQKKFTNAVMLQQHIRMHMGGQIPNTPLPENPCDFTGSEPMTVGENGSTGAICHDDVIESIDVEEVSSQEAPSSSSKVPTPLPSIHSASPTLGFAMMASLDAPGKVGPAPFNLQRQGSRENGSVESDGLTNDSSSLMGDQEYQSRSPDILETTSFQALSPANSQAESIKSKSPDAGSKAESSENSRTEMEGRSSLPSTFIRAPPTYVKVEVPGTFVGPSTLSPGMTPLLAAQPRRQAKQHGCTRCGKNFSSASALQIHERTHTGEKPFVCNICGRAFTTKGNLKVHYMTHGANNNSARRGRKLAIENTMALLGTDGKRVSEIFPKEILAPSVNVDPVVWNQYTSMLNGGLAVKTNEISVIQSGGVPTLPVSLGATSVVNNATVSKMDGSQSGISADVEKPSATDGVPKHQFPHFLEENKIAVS
Setting: 8-mer, flanks averaged, mean of replicates
Sequence	E-score
ATCATGTG	0.157
GTTGGAGA	0.0495
CATCCATA	0.253
ATTACACC	0.041
ACATCAAC	0.0687
ATACACCA	0.0379
ACCCAAAC	-0.014
AGTTGAAT	0.167
CTAAGTGA	0.00313
TGAATACA	0.297
TCAGGAAA	0.0812
ACCTCATG	-0.072
AGGCAATG	-0.039
TCTCAAAA	0.279
CCCACACG	-0.147
ATTCCACA	0.182
TGCTATAA	0.185
ACCTGAGG	-0.294

Series 3 — method: RNA Bind-n-Seq; form: RNA; medium: in vitro; tested at: 365 nM; baseline: no-protein control; reading: higher = stronger binding
Target: RNA binding protein fox-1 homolog 2, RRM domain, GST-SBP tag (RBFOX2, Homo sapiens, UniProt O43251-10, residues 100-194)
Setting: natural RNA segment, single round, ends assumed
All sequences stand within: GGGAGUUCUACAGUCCGACGAUC … UGGAAUUCUCGGGUGCCAA
Residues (chain): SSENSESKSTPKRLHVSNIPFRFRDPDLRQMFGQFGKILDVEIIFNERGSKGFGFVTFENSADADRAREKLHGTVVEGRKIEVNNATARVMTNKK
Sequence	RBNS enrichment (R)
GCCAGGCCCGUGCGGUCAGUGGGACCCGGACGUGGGCAGGCGAGCUCGGGACCCUCCCAGGCAGUUCCCACAGCUCUUGCCUCGGCUCACCAGGGUCACUUCCACUGUCA	0.398
UUAGGACGAACUGAAACGGUACAAACUGGUUAACACUACAGCGCCUUUUGCACAAAUGCUUUAGAUUGUAUGGUCUACACUCAGGAAGACACUAGGUCACCCAGGCAAAG	0.35
AUAUUCAAAUAGAGGCUCACAGCGGCAUAAGCUGGACUUUGUCGCCACUAGAUGACAAGAUGUUAUAACUAAGUUAAACCACAUCUGUGUAUCUCAAGGGACUUAAUUCA	0.258
GAAAAAAAAAGCCACACGAAGUGCAAUAGGGUUGUGCGGCGACUCAUUGAUAUUUCUCUGAUGUGAGAUAGAGCUGUGUGUGUGUGACUGGCUAGCAGCUAUCAGUAUUA	0.979
GAUCUCAGGCAUGCCUUCUAGAUUUGUUCCCUCUGAGGGGCAGGAAUGAACUGUAGAAAUGUUUUAAGGACCCAGAAACCCCAUAUGUCUCAUUCCAUGACUAUAGGUGA	9.42
GUCAGGUAACAACCAGAUGGCUUCACUGAAACCUGCUUUUGUAAAUUACUUUUUUUUACUGUUGCUGGAAGUGUCCCACCUGCUGCUCAUAAUAAAUGCAGAUGUAUAGC	0.324
UAGAUGGCUUCUUGCCAGUUUGAGCCUAAUCUGAUUCUUACAGUUUUACCUUCUUGAACCAAUGUAAAAGUUUUUUUAAUGUUAAAUGAUUAAAUUCUCAGUGAGGCUAU	0.519
CCAGGUUUUUGUCAGGUACCACAUGUAGAAUUACAUUUUUCUUAAAAGAUUGAUCAUCCAAAUGGCAAAUUUCUUAGAGUCCAUAACUGAUUUGAUAGAUUUUUCUUUUU	0.721

Series 4 — method: aptamer microarray, sandwich; form: DNA with 2'F-ANA; medium: in vitro; tested at: 200 nM; with: Cy3 exosite-II aptamer, 400 nM; reading: higher = stronger binding; sequence: GGTTGGTGTGGTTGG
Target: Prothrombin, mature alpha-thrombin (F2, Homo sapiens, UniProt P00734)
Setting: whole 15-mer aptamer, many near background
Modification	mean fluorescence intensity [a.u.]
2'F-ANA at 1 4 5 8 10 11 12 14	53.5
2'F-ANA at 2 3 5 8 9 11 12 15	172
2'F-ANA at 1 2 4 5 7 8 9 10 14	71.7
2'F-ANA at 2 3 5 6 7 8 9 10 12	61.9
2'F-ANA at 1 2 3 8 9 10 11 14	52.4
2'F-ANA at 1 2 3 11 13 15	193
2'F-ANA at 3 4 6 10 11 14 15	163
2'F-ANA at 2 3 5 6 7 11 15	71.6
2'F-ANA at 1 2 4 8 9 11 12 14	65.4
2'F-ANA at 4 5 6 7 10 11 13 15	50.8
2'F-ANA at 2 4 7 9 10 11 13 14	148
2'F-ANA at 1 2 3 5 7 10 11 13 15	48.1
2'F-ANA at 1 3 4 10 11 13 14 15	52
2'F-ANA at 1 2 4 6 7 12 13	152
2'F-ANA at 1 2 3 4 5 7 8 10 12	50.4
2'F-ANA at 1 3 5 8 9 10 11	48.5
2'F-ANA at 2 5 6 7 10 11 13 14	45
2'F-ANA at 1 2 3 4 5 8 13 14	80.8

Series 5 — method: protein binding microarray; form: double-stranded DNA, one strand shown; medium: in vitro; tested at: not given; baseline: not given; reading: higher = stronger binding
Target: Histone acetyltransferase KAT6A, winged helix 2, GST fusion (KAT6A, Homo sapiens, UniProt Q92794, residues 85-181)
Setting: 8-mer, flanks averaged, mean of 2 arrays, mostly near background
Construct (chain): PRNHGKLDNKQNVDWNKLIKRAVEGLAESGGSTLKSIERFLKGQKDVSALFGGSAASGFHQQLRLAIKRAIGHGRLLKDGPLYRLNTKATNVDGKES
Sequence	E-score
AGTCAAGA	-0.0618
GTTGTATA	-0.0345
AATGTGCC	-0.0322
AACAGTCA	-0.173
GACCGTTA	-0.167
CATGTTTC	0.163
TTAAGTAA	-0.0504
ATCCGACA	0.0594
CAAATCAC	-0.0114
CAAAACGC	-0.0423
AGGGGACC	0.0559
ACTGCTGC	0.0287
ATTATCAC	0.0161
AATCGGGC	0.0581
ACCACTCG	0.148
GGGCTGAA	0.2
CGTGCGGA	0.0455
GCTGATTA	0.149
AGTAACGC	-0.043
AGTCGGGG	-0.0453
ATTACATG	-0.106

Some of these lines once more (series 5):
Sequence	E-score
GACCGTTA	-0.167
CATGTTTC	0.163
TTAAGTAA	-0.0504
ATCCGACA	0.0594
CAAATCAC	-0.0114
CAAAACGC	-0.0423
AGGGGACC	0.0559
ACTGCTGC	0.0287
ATTATCAC	0.0161
AATCGGGC	0.0581
ACCACTCG	0.148
